Results collected from several papers.
Compare with care: the assays were run in different laboratories. “And” joins repeats or separate records; there may be more than shown. Numbers after ± are the reported error.

| Structure (SMILES) | assay | test system | setting | plasma concentration |
| --- | --- | --- | --- | --- |
| [2H]C([2H])(N)C([2H])([2H])NC(=O)c1cc(C2CC2)nc2c1cnn2C(C)C |  | mouse BALB/c female, plasma | intraperitoneal, 50 mg/kg, 1 h | 2460 ng/mL and 2630 ng/mL and 2610 ng/mL and 2690 ng/mL |
| O=C1C2CC3CC1CC(C(=O)N1CCN(c4ccc([N+](=O)[O-])c5ncccc45)CC1)(C3)C2 |  | ICR mouse, male | oral, 5 mg/kg, 2 h | 7.61 ng/mL |
| O=C1CCC(N2Cc3cc(C(=O)O)c(F)cc3C2=O)C(=O)N1 (stereo not shown) |  | CD-1 mouse, male | oral, 10 mg/kg parent drug, 4 h | 42.7 ± 24.2 ng/mL |
| CC1(C)CC[C@@]2(CO)C(=C3C=C[C@@H]4[C@@]5(C)CC[C@H](O)[C@@](C)(CO)[C@@H]5CC[C@@]4(C)[C@]3(C)C[C@@H]2O)C1 | UHPLC-MS/MS | mouse, plasma | oral, 50 mg/kg of saikosaponin a, 24 h | 0 ng/mL |
| C=CC(=O)N1CCC[C@@H](c2ccc(C(N)=O)c3[nH]ccc23)C1 |  | mouse, TMD8 tumour-bearing, plasma | 15 mg/kg twice daily, 8 h | 12.6 ng/mL |
| CCC(=O)N(C)c1ccc(Cl)c(Cl)c1 | LC-MS/MS | female C57BL/6 mouse, plasma | oral, 10 mg/kg, 4 h | not detected |
| Cc1ccc(OCC(=O)N(Cc2cccs2)c2ccn[nH]2)cc1 |  | mouse, CD-1, male, plasma | oral, 30 mg/kg, 2 h | 27 nM |
| C=CC(=O)N1CCCC(n2c(=O)c3ncccc3n(Cc3ccc(Oc4ccccc4)cc3)c2=O)C1 (stereo not shown) |  | male BALB/c mouse, plasma | intraperitoneal, 200 mg/kg, 0.25 h | 67900 ng/mL |
| CC(C)n1ncc2c(C(=O)NC[C@@H](C)N)cc(C3CC3)nc21 |  | mouse BALB/c female, plasma | intraperitoneal, 30 mg/kg, 8 h | 204 ng/mL and 210 ng/mL and 169 ng/mL and 192 ng/mL |
| Cc1nn(-c2nc3c(F)cc(F)cc3s2)c(O)c1C(c1ccc(C(F)(F)F)cc1)c1c(C)nn(-c2nc3c(F)cc(F)cc3s2)c1O |  | ICR mouse, plasma | oral, 50 mg/kg, 1.00 h, mean, one outlier excluded | 88400 ng/mL |

A few entries again:
| Structure (SMILES) | assay | test system | setting | plasma concentration |
| --- | --- | --- | --- | --- |
| O=C1C2CC3CC1CC(C(=O)N1CCN(c4ccc([N+](=O)[O-])c5ncccc45)CC1)(C3)C2 |  | ICR mouse, male | oral, 5 mg/kg, 2 h | 7.61 ng/mL |
